Results collected from several papers.
Parts stem from different laboratories: compare values within a part only.

Series 1
Target: RNA binding protein fox-1 homolog 2, RRM domain, GST-SBP tag (RBFOX2, Homo sapiens, UniProt O43251-10, residues 100-194)
Method: RNA Bind-n-Seq
Molecule type: RNA
Matrix: in vitro
Tested at: 365 nM
Notes: natural RNA segment, single round, ends assumed
Relative to: no-protein control
Direction: higher = stronger binding
Endpoint: RBNS enrichment (R)
Residues (chain): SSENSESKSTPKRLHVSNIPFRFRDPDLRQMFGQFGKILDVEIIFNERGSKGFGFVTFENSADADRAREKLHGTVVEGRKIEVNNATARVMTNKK
Oligonucleotide = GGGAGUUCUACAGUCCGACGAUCCAGCUCAUCUUAAUAUUUUCCAUUUUUAUUAGAGGAAGUAGGACAGAGUUGUGUUUUUCUUUAUAAACAAAUGAUAAACUAGCUUUUUUAAAAAGUGACUGUUAGAACUUUGGAAUUCUCGGGUGCCAA; result = 0.339
Oligonucleotide = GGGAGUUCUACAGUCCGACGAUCAAUUUGAUUUCCAUUUUAAGGUGGUGUCUGUGCAGCUGGUGUCCCCGAUUCUGGCUGUCCUAUGUCCAGGAAGAAGCCCAUUUGUUGAGGCUGACCUUCCUGAUCAUACAUGGAAUUCUCGGGUGCCAA; result = 0.304
Oligonucleotide = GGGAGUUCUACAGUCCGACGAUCAAAGUAAAAAAUCAGGAUGUUUUUCACUGUCCAUUGCUUUGUGUUUUAAUAAACAAUUUGCAGUGAUCUCCGUGUUGAGAGUGAAUUGAACUCAGAGAGAGAGAUGGUGAUGGAAUUCUCGGGUGCCAA; result = 0.644
Oligonucleotide = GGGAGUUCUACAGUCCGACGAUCCUCCCUAAUUCUUUUGUUUCUUUUGCAGAAUUAAGAAUAUUUCCUUGUUUAUUAGAUACAUCACUGCUUUAUGAAGCAAGGAAGAUAUACAUGAAAAAAUUUAAAUACAUUGGAAUUCUCGGGUGCCAA; result = 1.3
Oligonucleotide = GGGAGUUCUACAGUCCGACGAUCUUAAAUUAUUUUAUAGUGCCUGAUAUUUUUAAUAUUAUAAGUUGGAUUCAAAGGGUAUACAGCAUUUUGUUUUCUAGUACCAUUGCUUCACUGGGAGCUCAAAAUUUGCCUGGAAUUCUCGGGUGCCAA; result = 6.93
Oligonucleotide = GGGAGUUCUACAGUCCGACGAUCCUUUAAACUAGUAUGUGCAUCAGAUGCUUACAGCAGAAGUUUGCACAGGUAAGAGAAGCUGCCAGUGACGUUCUGUGGGGCCUGGCUUUGGGCAGCUGCUCAUCAUUGAGUGGAAUUCUCGGGUGCCAA; result = 0.32
Oligonucleotide = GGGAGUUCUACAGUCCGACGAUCUCUUACUGAAGAGGACUCUAGCUCUCCCUGCCUGCUCUGAACUUUACUUCCCAGACCAGGUGUCCGGCUGGGAACAAACCACUAAUUUGUCACUGGACUGUCUCUGGGCCUGGAAUUCUCGGGUGCCAA; result = 1.73
Oligonucleotide = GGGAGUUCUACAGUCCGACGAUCAUAGAGGUCAUAUAGUUGGGCCAUGGGGCAAUUGUUGGCAGCCAUGACUGACGGCCCCUUGUGCAAGCUCAUUCUUCAGUGGAUCCUUCAGUGGAGUGGUGACACGUGCCUGGAAUUCUCGGGUGCCAA; result = 0.241

Series 2
Target: Fragile X messenger ribonucleoprotein 1, C-terminal low-complexity region (Fmr1, Mus musculus, UniProt P35922)
Method: RNA Bind-n-Seq
Molecule type: RNA
Matrix: in vitro
Tested at: 200 nM
Notes: whole 134-nt RNA, ends assumed
With: 150 mM LiCl
Relative to: input library
Direction: higher = stronger binding
Endpoint: log2 enrichment
Library: 7-deaza-guanosine replaces G
Oligonucleotide = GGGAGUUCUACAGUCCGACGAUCUCAAGUCCUGUGCUACACAUCGUAUGUACCGAAUCGGUGGAAAGGUUUUUUUGGAAAGUAUUAUGUUACGCCGUUCGGAUCUGCACUUCCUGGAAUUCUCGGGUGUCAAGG; result = -1.28
Oligonucleotide = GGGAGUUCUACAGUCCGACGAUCCACAGACAACACGCACCCACACAGACACAAAAGGAAGGGGUUGGGAUGGGGACAGGGUGCACAGCAGGGCGGGGUAGGACCCCAGCCCCUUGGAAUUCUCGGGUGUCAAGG; result = 0.102
Oligonucleotide = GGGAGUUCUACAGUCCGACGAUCCAAGUCCUGUGCUACACAUCGUAUGUACCGAAUCGGUUUUGGUUUUGGGUUUUGGGAAAGUAUUAUGUUACGCCGUUCGGAUCUGCACUUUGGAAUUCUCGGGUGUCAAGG; result = -1.83
Oligonucleotide = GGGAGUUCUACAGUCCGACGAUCGCUGUUCUUGCCUUAGCUGCAUCUUGGACCUCAAGACAAGUAGGAGAACGGACGUUGACCGGUACGGUAAUAGACAGUGGAGAUGGUGUCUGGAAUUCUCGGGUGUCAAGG; result = -2.73
Oligonucleotide = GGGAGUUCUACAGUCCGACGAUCACCAUGCAGGUGGGCAUCUUAAAGAAGUGGGGCAAGGGGGGGAUAGGGAGGGGGGUAACACUUUGGGAACAGGUGGUCCCAGGUCGUUUCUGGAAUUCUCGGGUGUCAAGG; result = 1.3
Oligonucleotide = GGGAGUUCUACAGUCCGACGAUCGUCCUGUGCUACACAUCGUAUGUACCGAAUCGGGGAAAGGGGUUUUUUUGGGGAGGGGAAAGUAUUAUGUUACGCCGUUCGGAUCUGCACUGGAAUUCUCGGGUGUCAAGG; result = -0.329
Oligonucleotide = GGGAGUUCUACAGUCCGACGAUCCUGUGCUACACAUCGUAUGUACCGAAUCGGGGAAAAAGGGGUUUUUUUGGGGAAAAAGGGGAAAGUAUUAUGUUACGCCGUUCGGAUCUGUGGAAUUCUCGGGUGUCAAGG; result = -1.04
Oligonucleotide = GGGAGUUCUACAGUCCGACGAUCCAAGUCCUGUGCUACACAUCGUAUGUACCGAAUCAAAUUUAAACCCAAAUUUAAAAAAGUAUUAUGUUACGCCGUUCGGAUCUGCACUUCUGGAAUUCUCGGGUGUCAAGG; result = -1.16

Series 3
Target: RING finger protein unkempt homolog, zinc fingers 1-6, GST-SBP tag (UNK, Homo sapiens, UniProt Q9C0B0, residues 30-357)
Method: RNA Bind-n-Seq
Molecule type: RNA
Matrix: in vitro
Tested at: not given
Notes: RNA with constant flanks, human and mouse sites, ends assumed
Relative to: input RNA pool
Direction: higher = stronger binding
Endpoint: bound/input enrichment
Target sequence (chain): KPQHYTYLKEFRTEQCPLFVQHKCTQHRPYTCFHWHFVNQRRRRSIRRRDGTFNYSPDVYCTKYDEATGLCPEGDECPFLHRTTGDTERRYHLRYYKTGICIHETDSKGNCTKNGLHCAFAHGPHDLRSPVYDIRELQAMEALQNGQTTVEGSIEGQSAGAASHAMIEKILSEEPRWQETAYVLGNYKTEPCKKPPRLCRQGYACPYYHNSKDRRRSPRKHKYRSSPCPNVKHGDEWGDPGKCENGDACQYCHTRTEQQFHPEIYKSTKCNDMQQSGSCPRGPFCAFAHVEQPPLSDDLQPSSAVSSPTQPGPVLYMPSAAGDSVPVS
Oligonucleotide = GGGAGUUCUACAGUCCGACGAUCUGUUUUUUGUUUUGUUUUUUGUUUUUAUAUACUGUAGUGUUUUAACCAAACAGUUGUGGCUACUCAUGGUGAGGAAUGACCGCUAAGAGUGUGGGUUCUUUGCAAUACAUUUGGAGGUCACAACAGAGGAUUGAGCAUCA; result = 1.51 ratio
Oligonucleotide = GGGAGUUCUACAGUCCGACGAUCUGUUGUGUCUGUGCUAACCUGGGAACUGGCCACCUCCAUUGUUCUUUGCUUCUGCACAAGAUCCAUGAAAAUCCAUUGAUCAGAAGAACUUCACCUGCAGACCUCUUCAAGUGACACUAUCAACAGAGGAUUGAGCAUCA; result = 0.0777 ratio
Oligonucleotide = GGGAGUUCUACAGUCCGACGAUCUUAAUAGGCUUAAUAAUUGUUGGCAAGGAUCCUUUUGCUUUCUUUGGCAUGCAAGCUCCUAGCAUCUGGCAGUGGGGCCAAGAAAAUAAGGUUUAUGCAUGUAUGAUGGUUUUCUUCUUGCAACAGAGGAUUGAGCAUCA; result = 0.369 ratio
Oligonucleotide = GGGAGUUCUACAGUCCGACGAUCCUCAAUGCCUUAACCAAGCGUGUCUCCCCACUGAUAGGACGUUUUGUUCCCUUCGCUGCUGUAGCUGCUGCUAACUGCAUUAACAUCCCACUGAUGAGACAAAGGGAGCUGAAGGUUGGUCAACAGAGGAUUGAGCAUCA; result = 0.193 ratio
Oligonucleotide = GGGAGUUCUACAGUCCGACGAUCAAUAAGCAUGUUAUGUAUAUUGUCUCGUGUUUUUAUUUUUACACCAUAUUGUAUUACACUUUUAGUAUUCACCAGCAUAAUCACUGUCUGCCUAAAAUAUGCAACUCUUUGCAUUACAAUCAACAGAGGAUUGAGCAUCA; result = 3.32 ratio
Oligonucleotide = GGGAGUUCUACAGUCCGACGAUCGUGACUAAGUGAUUAGGUAAAGAGUAAGAAAAGACACCAAAAUAAAGUACUGCGGAGGAAUUUCUGUCAAGCUGUGAGACGACGGAGUGAAGAGUGAAGGCGAUUGCGAGGGGCUGAGGGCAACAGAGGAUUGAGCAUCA; result = 0.902 ratio
Oligonucleotide = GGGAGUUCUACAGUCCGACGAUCCGCAUCUUUCAUCAGAAUGCAGUCGUGUCUAAGAGUGGGUAUUUUGUGAUAAUGUUUACUAUAGAUCAUUUGUUAAUUUUGAUGCCUUCAUUUUAGCUAAUUUCAGAAUUUUUAUUAGGUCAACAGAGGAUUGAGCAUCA; result = 35.7 ratio
Oligonucleotide = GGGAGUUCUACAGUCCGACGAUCCAUUGACCUGUCAUGCCUCGCCUGGAGGCAGCAGCAUUGGGGAUCCCCUCCAUGGGGUUCAUAGAAAUAAGUGCAAUUUUUUUACACCCCUGAAACAAUUUGAAGGGAAGCAGCAUUACUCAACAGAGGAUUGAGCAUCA; result = 1.07 ratio

Series 4
Target: Histone acetyltransferase KAT6A, both winged helices, GST fusion (KAT6A, Homo sapiens, UniProt Q92794, residues 1-181)
Method: protein binding microarray
Molecule type: double-stranded DNA, one strand shown
Matrix: in vitro
Tested at: not given
Notes: 8-mer, flanks averaged, mean of 2 arrays, mostly near background
Relative to: not given
Direction: higher = stronger binding
Endpoint: E-score
Construct (chain): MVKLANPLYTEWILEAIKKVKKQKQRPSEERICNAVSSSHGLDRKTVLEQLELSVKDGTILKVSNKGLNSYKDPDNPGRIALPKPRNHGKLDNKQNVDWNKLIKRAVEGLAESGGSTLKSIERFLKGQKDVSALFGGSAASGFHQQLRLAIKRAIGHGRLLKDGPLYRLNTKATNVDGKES
Oligonucleotide = ATCTCCGG; result = 0.0809
Oligonucleotide = CACGGAAA; result = 0.284
Oligonucleotide = AAGGAGAC; result = -0.0685
Oligonucleotide = GGACACCC; result = -0.0562
Oligonucleotide = GAGGTGAC; result = -0.0794
Oligonucleotide = CTGCGAAA; result = -0.0516
Oligonucleotide = AAATTAAA; result = -0.036
Oligonucleotide = ACCTGGAG; result = -0.181
Oligonucleotide = CCTGTAGA; result = -0.104
Oligonucleotide = GTGGTAAC; result = -0.00199
Oligonucleotide = GCCATACA; result = -0.0596
Oligonucleotide = ACTCGTAC; result = -0.0544
Oligonucleotide = ATGTAATA; result = 0.0437
Oligonucleotide = ATAAGTGC; result = -0.00261
Oligonucleotide = GATCATAC; result = 0.0718
Oligonucleotide = CACATGGA; result = -0.167
Oligonucleotide = TACCTAGA; result = -0.202
Oligonucleotide = ACAACGTA; result = -0.19
Oligonucleotide = CCACAGGG; result = -0.213

A few entries again (series 4):
Oligonucleotide = AAGGAGAC; result = -0.0685
Oligonucleotide = GGACACCC; result = -0.0562
Oligonucleotide = GAGGTGAC; result = -0.0794
Oligonucleotide = CTGCGAAA; result = -0.0516
Oligonucleotide = AAATTAAA; result = -0.036
Oligonucleotide = ACCTGGAG; result = -0.181
